Measured values of several laboratories.
Protocols differ between the studies behind these lines. Values joined by “and” are separate records of one study, mostly repeats; a detail may differ. ± gives the spread as reported.
SCTR: Secretin receptor (SCTR, Homo sapiens, UniProt P47872)
POLB I260M: DNA polymerase beta (POLB, Homo sapiens, UniProt P06746, I260M)
POLB: DNA polymerase beta (POLB, Homo sapiens, UniProt P06746)

COc1ccc(-c2cc(C(F)(F)F)nc(SCC(=O)N(C)c3ccccc3)n2)cc1OC — increase of binding (SCTR; Fluo-Sec binding, TR-FRET; HEK293 membranes, SNAP-tagged receptor; concentration not given, with: Fluo-Sec): 60%
O=P(O)(O)O[C@@H]1[C@@H](O)[C@H](O)[C@H](O)[C@H](O)[C@H]1OP(=O)(O)O — ΔpEC50 (Inositol 1,4,5-trisphosphate-gated calcium channel ITPR1 (Itpr1, Rattus norvegicus, UniProt P29994, del318-332/R568Q); Ca2+ release; DT40, permeabilized; unit not given; relative to: R568Q over wild type): 0.21 ± 0.11
Cc1ccc(Nc2ncc3c(n2)N(C)C(=O)N(c2cc(NC(=O)c4ccc(CN5CCC(N(C)C)C5)c(C(F)(F)F)c4)ccc2C)C3)cn1 (stereo not shown) — GI50 (FGFR4/Transcription factor ETV6 (Homo sapiens, UniProt P22455+P41212); cell growth; Ba/F3 expressing TEL-FGFR4; 72 h): 28 nM
CN(C)c1cc2ccccc2c(N)n1 — binding ((CUG) RNA; isothermal titration calorimetry; concentration not given): no binding
NC(=O)CN1C(=O)C(O)(CC(=O)c2cccc(N)c2)c2ccccc21 (stereo not shown) — ΔG (uncharacterized protein (Leishmania donovani, UniProt A0A3Q8IA09); competitive ITC; with: aspartate 60 µM): -7.49 kcal/mol
CCCCCCCC/C=C\CCCCCCCC(=O)OC[C@H]1OCCC[C@@H]1OP(=O)(O)S (stereo partly shown) — Emax (Lysophosphatidic acid receptor 2 (LPAR2, Homo sapiens, UniProt Q9HBW0); agonist, TGFα shedding): 16%
Oc1c(C(Nc2nc3ccccc3s2)c2cccc(OCc3ccccc3)c2)ccc2cccnc12 (stereo not shown) — Hill slope (Genome polyprotein, NS2B-NS3 protease (Dengue virus type 2, UniProt P14340); enzyme activity, inhibitor; no CHAPS, with: Bz-Nle-Lys-Arg-Arg-AMC substrate): 1.14 ± 0.07
COc1ccccc1-c1cc(C(F)(F)F)nc(S(=O)(=O)CCCC(=O)Nc2ccc(F)cc2F)n1 — Emax (SCTR; increase of tracer binding, TR-FRET; HEK293 membranes; with: Fluo-Sec 6 nM): 149 ± 23%
Cc1cc(=O)oc2c(F)c(OP(=O)(O)O)c(F)cc12 — Km (Tyrosine-protein phosphatase non-receptor type 11 (PTPN11, Homo sapiens, UniProt Q06124); enzyme activity, substrate): 108 µM
COc1ccc(CNc2nc(-c3ccc(OC)c(OC)c3)cc(C(F)(F)F)n2)cc1 — Emax (SCTR; increase of tracer binding, TR-FRET; HEK293 membranes; with: Fluo-Sec 6 nM): 132 ± 12%
N[C@H]1CC[C@H](Nc2nccc(-c3cccnc3Oc3ccc(NS(=O)(=O)CCC(F)(F)F)c(F)c3)n2)CC1 — RNase activity (Serine/threonine-protein kinase/endoribonuclease IRE1 (ERN1, Homo sapiens, UniProt O75460); inhibitor; concentration not given, with: XBP1 mini-substrate): inhibited
C=CCC1C(=O)C=C(OC)C2(OC)C(C)C(c3ccc4c(c3)OCO4)OC12 (single isomer, unassigned; (-)) — transcriptional activity (Bile acid receptor (NR1H4, Homo sapiens, UniProt Q96RI1, H461F); reporter gene; HEK293T; concentration not given; relative to: wild type): inhibited
CCn1c(-c2cc(NC(=O)c3cnccn3)n[nH]2)cc2ccc(OC)cc21 — IC50 fold shift (Casein kinase II subunit alpha' (CSNK2A2, Homo sapiens, UniProt P19784); ATP-competitive test, ADP-Glo; with: ATP 10 to 500 µM; relative to: high over low ATP): ~35 fold
Cc1ncsc1-c1ccc([C@H](C)NC(=O)[C@@H]2C[C@@H](O)CN2C(=O)[C@@H](NC(=O)c2cnc(C(=O)N3CCC(c4cc(Nc5cc(C#N)ccn5)nc(N5CCC(F)(F)C5)c4)CC3)cn2)C(C)(C)C)cc1 — lowest degrading concentration (Mitogen-activated protein kinase kinase kinase 13 (MAP3K13, Homo sapiens, UniProt O43283); protein degradation, degrader, Western blot; CAL-33, dox-induced MAP3K13 overexpression; 24 h): 500 nM
Cc1ccc(NC(=O)CNS(=O)(=O)c2nc(-c3ccc(OC(F)(F)F)cc3)cc(C(F)(F)F)n2)cc1 — binding enthalpy (Bifunctional 3'-5' exonuclease/ATP-dependent helicase WRN (WRN, Homo sapiens, UniProt Q14191); isothermal titration calorimetry; concentration not given, 25 °C): ~11 kcal/mol
CCC1(CC)C(=O)N(c2cccc(CN3CCN(Cc4ccc5ccc6cccc7ccc4c5c67)CC3)c2)C1=O — Ki (Dipeptidyl peptidase 8 (Homo sapiens, UniProt Q6V1X1); inhibitor, Morrison equation): inactive
Cc1cn([C@H]2C[C@H](O)[C@@H](COP(=O)(O)OP(=O)(O)C(Br)(Br)P(=O)(O)O)O2)c(=O)[nH]c1=O — kpol (POLB I260M; nucleotide incorporation rate, substrate, single-turnover kinetics; single-nucleotide gapped DNA; 37 °C, I260M, correct incorporation, with: dTTP opposite template A): 0.19 ± 0.01 s⁻¹
Clc1ccc2c(NCc3ccc(OCCN4CCOCC4)cc3)ccnc2c1 — activation (Nuclear receptor subfamily 4 group A member 2, ligand binding domain (Homo sapiens, UniProt P43354); reporter gene, agonist, Gal4-Nurr1 hybrid reporter; HEK-293T; 30 µM, crude library product; relative to: vehicle (0.1% DMSO)): ≤ 1.5 fold
Nc1nc2c(ncn2C2CC(O)C(COP(=O)(O)OP(=O)(O)C(F)P(=O)(O)O)O2)c(=O)[nH]1 (mixture of isomers) — kpol/Kd (POLB I260M; nucleotide incorporation, substrate, single turnover kinetics; dG misincorporation opposite A): 6.4 ± 2.1 M⁻¹ s⁻¹
[11CH3]Nc1ccc(-c2nc3ccc(O)cc3o2)cn1 — distribution volume ratio (Amyloid-beta precursor protein (APP, Homo sapiens, UniProt P05067); binding, PET, reference Logan; Alzheimer's disease patients, parietal cortex; relative to: cerebellum): 1.68 ± 0.2
Cc1cn(C2CC(O)C(COP(=O)(O)OP(=O)(O)C(Br)P(=O)(O)O)O2)c(=O)[nH]c1=O (mixture of isomers) — kpol (POLB I260M; nucleotide incorporation rate, substrate, single-turnover kinetics; single-nucleotide gapped DNA; 37 °C, I260M, correct incorporation, with: dTTP opposite template A): 1.3 ± 0.1 s⁻¹
COc1ccc(-c2cc(C(F)(F)F)nc(SCC(=O)N(C)c3ccccc3)n2)cc1 — cooperativity factor β (SCTR; allosteric modulator; with: secretin(1-23)): 0.8
C[n+]1cn(C2OC(COP(=O)([O-])OP(=O)(O)OP(=O)(O)OCC3OC(n4cnc5c(=O)[nH]c(N)nc54)C(O)C3O)C(O)C2O)c2nc(NCc3cc(-c4ccccc4)no3)[nH]c(=O)c21 (stereo not shown) — relative affinity (Eukaryotic translation initiation factor 4E (Eif4e, Mus musculus, UniProt P63073); differential scanning fluorimetry; relative to: m7GpppG): ~5
[123I]c1ccc2nc(-c3ccc(-n4ccnn4)nc3)cn2c1 — SUVR (Amyloid-beta precursor protein, amyloid-beta (APP, Homo sapiens, UniProt P05067); SPECT; Alzheimer's disease patients, anterior cingulate; 150 to 240 min; relative to: cerebellum): 1.28 ± 0.3
CNc1ccccc1C(=O)O[C@H]1C[C@H](n2cnc3c(N)ncnc32)O[C@@H]1COP(=O)(O)OP(=O)(O)O — slow phase amplitude (Unconventional myosin-Va (Gallus gallus, UniProt Q02440, D297C/G292C/I296C/S293C/V295G); stopped-flow FRET; 4–15 °C, with: 4 mM EDTA; relative to: total): ~5%
Nc1nc2c(ncn2[C@H]2C[C@H](O)[C@@H](COP(=O)(O)OP(=O)(O)[C@H](Cl)P(=O)(O)O)O2)c(=O)[nH]1 — stereoselectivity ratio (POLB; substrate; opposite dC; relative to: R over S): 7
Cc1cc(O)c(=O)c(O)cc1C(=O)N1CCN(C(=O)c2cccc3ccccc23)CC1 — maximum inhibition (Ribonuclease H1 (Homo sapiens, UniProt O60930); enzyme activity, inhibitor, FRET heteroduplex cleavage): ~95% and 94%
Nc1nc2c(ncn2C2CC(O)C(COP(=O)(O)OP(=O)(O)C(F)(Cl)P(=O)(O)O)O2)c(=O)[nH]1 (mixture of isomers) — kpol (POLB; nucleotide incorporation rate, substrate, single-turnover kinetics; single-nucleotide gapped DNA; 37 °C, wild type, misincorporation, with: dGTP opposite template A): 0.0018 ± 0.0003 s⁻¹
CC(=O)[C@@]1(O)CC[C@H]2[C@@H]3CCC4=CC(=O)CC[C@]4(C)[C@H]3CC[C@@]21C — cAMP level (ADGRG6 (Homo sapiens, UniProt Q86SQ4); ADGRG6 knockdown cells; concentration not given): no effect
Cc1cn(C2CC(O)C(COP(=O)(O)OP(=O)(O)C(Cl)P(=O)(O)O)O2)c(=O)[nH]c1=O (mixture of isomers) — kpol/Kd (POLB I260M; substrate, single turnover kinetics): 60000 ± 20000 M⁻¹ s⁻¹
COc1ccc(-c2cc(C(F)(F)F)nc(NCc3ccc(Cl)cc3)n2)cc1OC — Emax (SCTR; cAMP, agonist): 23%
NC(=O)C1CCNC(=O)C(CCCNC(=O)c2cnccn2)NC(=O)C(Cc2ccco2)NC(=O)C(CC2CC2)NC(=O)C=CC(=O)N1 (stereo not shown) — enrichment factor (Vascular endothelial growth factor receptor 2 (KDR, Homo sapiens, UniProt P35968); DNA-templated library selection; one selection round): 2.4
Oc1cc(F)ccc1Oc1ccccc1 — residence time (Enoyl-[acyl-carrier-protein] reductase [NADPH] FabI (Staphylococcus aureus, UniProt Q6GI75); binding): 2.4 min
COc1ccc2c(c1)CC[C@@H]1[C@@H]2CC[C@@]2(C)C(=O)CC[C@@H]12 — inhibition (Aldo-keto reductase family 1 member C3 (AKR1C3, Homo sapiens, UniProt P42330); enzyme activity, inhibitor, absorbance; 100 µM, pH 9): 59.9%
[3H]C([3H])([3H])c1cnccc1CN1C[C@@H](c2cc(F)c(F)c(F)c2)CC1=O — loss of specific binding (Synaptic vesicle glycoprotein 2A (SV2A, Homo sapiens, UniProt Q7L0J3); radioligand binding; human Alzheimer disease, frontal cortex P2 fraction; 5 nM; relative to: control brains): ~55.9%
C=C1[C@H](O)CC(=C/C=C2\CCC[C@]3(C)[C@@H]([C@@H](C)CCCCO)CC[C@@H]23)C[C@H]1O — Ki ratio (Vitamin D3 receptor (Rattus norvegicus, UniProt P13053); binding, radioligand competition; relative to: compound over 1α,25-dihydroxyvitamin D3): 3
C[C@@H](N)[C@H]1CC[C@H](C(=O)Nc2ccncc2)CC1 — activity vs control (Serine/threonine-protein kinase N1 (PKN1, Homo sapiens, UniProt Q16512); enzyme activity, inhibitor, radiometric; 10 µM): < 10%
OCC1CCCN(CCNc2cc(-c3ccccc3)nc3ccnn23)C1 (stereo not shown) — signal attenuation (DNA dC->dU-editing enzyme APOBEC-3A (Homo sapiens, UniProt P31941); binding, 1H CPMG NMR): 56.3 ± 4.7%
Nc1nc2c(ncn2[C@H]2C[C@H](O)[C@@H](COP(=O)(O)OP(=O)(O)[C@H](F)P(=O)(O)O)O2)c(=O)[nH]1 — kpol (POLB; substrate, quench-flow kinetics; pH 8.0, 37 °C, misincorporation opposite T in gapped DNA): 2.3 ± 0.4 s⁻¹
CCOC(=O)c1cnc(CNCCc2c[nH]c3cccc(C)c23)s1 — Emax (5-hydroxytryptamine receptor 2C (HTR2C, Homo sapiens, UniProt P28335); β-arrestin recruitment, agonist): 93%
